Published values pooled from the literature.
Each line is one published result; not all experiments were run side by side. Several values in a cell are separate wells, animals, samples, runs or records.

Compound | test | system | setting | plasma concentration
[2H]C([2H])(N)C([2H])([2H])NC(=O)c1cc(C2CC2)nc2c1cnn2C(C)C |  | mouse BALB/c female, plasma | intraperitoneal, 50 mg/kg, 0.25 h | 1820 ng/mL and 1760 ng/mL and 2200 ng/mL and 2080 ng/mL
CC[C@H](C)[C@H](NC(=O)[C@H](Cc1ccc(O)cc1)NC(=O)[C@@H](NC(=O)[C@H](CCCNC(=N)N)NC(=O)[C@@H](N)CC(=O)O)C(C)C)C(=O)N[C@@H](Cc1c[nH]cn1)C(=O)N1CCC[C@H]1C(=O)O | LC-MS/MS | Sprague-Dawley rat, both sexes, plasma | subcutaneous, 10 mg/kg/day, day 27, 0.25 h, 15 min | 257 ng/mL
C=CC(=O)N1CCCC(n2c(=O)c3ncccc3n(Cc3ccc(Oc4ccccc4)cc3)c2=O)C1 (centres unmarked) |  | male BALB/c mouse, plasma | oral, 200 mg/kg, 0.25 h | 26900 ng/mL
CNc1cc(N)c(C(N)=O)cn1 |  | Han Wistar rats, male, plasma | oral, 30 mg/kg, 3.00 h | 9.05 µM
C=C[C@]1(C)C[C@@H](OC(=O)CSc2ccc(NC(=O)c3ccco3)cc2)[C@]2(C)[C@H](C)CC[C@]3(CCC(=O)[C@H]32)[C@@H](C)[C@@H]1O |  | Mycoplasma gallisepticum-infected chickens, plasma | intramuscular, 40 mg/kg, 3 h | 720 ng/mL and 533 ng/mL and 555 ng/mL and 874 ng/mL and 616 ng/mL and 801 ng/mL and 818 ng/mL and 766 ng/mL
CC1(C)CC[C@@]2(CO)C(=C3C=C[C@@H]4[C@@]5(C)CC[C@H](O)[C@@](C)(CO)[C@@H]5CC[C@@]4(C)[C@]3(C)C[C@@H]2O)C1 | UHPLC-MS/MS | mouse, plasma | oral, 50 mg/kg of saikosaponin a, 6 h | 46.4 ng/mL
C[C@]12C[C@H](c3ccc(S(C)(=O)=O)cc3)C3=C4CCC(=O)C=C4CC[C@H]3[C@@H]1CC[C@@]2(O)C(F)(F)C(F)(F)F | measured: compound (parent) | healthy human volunteers, pooled plasma | oral, 5 mg daily, day 28, 0.5 h | 13.1 ng/mL
CNc1cc(C)c(C(N)=O)cn1 |  | Han Wistar rats, male, plasma | oral, 30 mg/kg, 0.25 h | 82.7 µM
Cc1noc(C)c1Cn1cc(N2C(=O)CN(Cc3cccc(OS(=O)(=O)O)c3)C2=O)cn1 |  | Sprague-Dawley rat, male | oral, 100 mg/kg of parent drug, 0.5 h | 4750 ng/mL
COc1ccc(C(N)=O)cn1 |  | Han Wistar rats, male, plasma | oral, 30 mg/kg, 2.00 h | 33 µM
Cc1ncsc1-c1ccc(CNC(=O)[C@@H]2C[C@@H](O)CN2C(=O)[C@@H](NC(=O)COCC(C)(COCCOCCOCCNC(=O)C[C@@H]2N=C(c3ccc(Cl)cc3)c3c(sc(C)c3C)-n3c(C)nnc32)COCCOCCOCCNC(=O)C[C@@H]2N=C(c3ccc(Cl)cc3)c3c(sc(C)c3C)-n3c(C)nnc32)C(C)(C)C)cc1 | LC-MS/MS | male C57BL/6 mice, plasma | intravenous, 5 mg/kg, 5 min | 32100 ng/mL and 33300 ng/mL

Some of these lines once more:
Compound | test | system | setting | plasma concentration
Cc1noc(C)c1Cn1cc(N2C(=O)CN(Cc3cccc(OS(=O)(=O)O)c3)C2=O)cn1 |  | Sprague-Dawley rat, male | oral, 100 mg/kg of parent drug, 0.5 h | 4750 ng/mL
